Published values from different studies.
Lines come from different studies, so protocols differ. “And” joins repeats or separate records; there may be more than shown.

Compound	tested on	assay	system	conditions	how to read	endpoint	result
O=C(O)C1CCCNC1 (stereo not shown)	SLC6A6 (Homo sapiens, UniProt P31641, G62A)	binding, microscale thermophoresis		488 nM, room temperature, added: 50 nM labelled protein	higher = more binding	normalised MST signal	-0.0501
O=c1nc(SCc2cc(F)cc(C(F)(F)F)c2)nc(SCc2ccc3nc(OCCN4CCOCC4)ccc3c2)[nH]1	TOP2A (Homo sapiens, UniProt P11388)	decatenation		15.6 µM, replicate 1		decatenated DNA	85.8%
O=c1c(O)c(-c2ccccc2)oc2cc3ccccc3cc12	Albumin (ALB, Bos taurus, UniProt P02769)	binding, ligand				association constant	~10 1.000e+03 M⁻¹
Cn1cc(-c2ccc(-c3cncc(Cl)c3N3CCC4(CCNC4=O)CC3)cc2)cn1	COLO 205	gene expression, microarray, refers to: SCUBE1 mRNA		concentration not given, 6 h	reference: untreated cells	log2 fold change	-2.55
C=CC(=O)N1CCC(COCC(=O)N2CCN(c3nc(-c4cnc(N)nc4C(F)F)nc(N4CCOC[C@@H]4C)n3)CC2)CC1	MYLK (Homo sapiens, UniProt Q15746)	KINOMEscan		1 µM		remaining binding	100%
Nc1nc2c(ncn2[C@@H]2O[C@H](COP(=O)(O)O)[C@@H](O)[C@H]2O)c(=O)[nH]1	GUK1 (Homo sapiens, UniProt Q16774, S37P)	enzyme activity, NADH-coupled		1000 µM		reaction rate	1.65 s⁻¹ and 2.35 s⁻¹ and 2.22 s⁻¹
COCCN(C)C(=O)c1ccc(C2CCCCC2)cc1		liver microsome stability	dog liver microsomes	1 µM		hepatic clearance	26 mL/min/kg
Cc1ccc(C(=O)Nc2ccc3ccccc3c2)o1	Otop1 (Mus musculus, UniProt Q80VM9)	proton current, voltage ramp patch-clamp		10 µM, NMDG bath cation		reversal potential	56.9 mV
CCCCC[S+]([O-])c1n[nH]c(N)n1 (stereo not shown)	Transcription intermediary factor 1-alpha, PHD-bromodomain (TRIM24, Homo sapiens, UniProt O15164)	binding, affinity selection mass spectrometry			reference: other proteins in batch	log fold enrichment	-0.0585
NS(=O)(=O)c1cccc(-c2ccc(C3CCCCC3)cc2)c1		liver microsome stability	cynomolgus liver microsomes	1 µM		hepatic clearance	19 mL/min/kg
CC[C@H](C)[C@H](NC(=O)[C@H](Cc1ccccc1)NC(=O)[C@H](CCC(=O)O)NC(=O)[C@H](CCCNC(=N)N)NC(=O)[C@H](C)NC(=O)[C@H](C)NC(=O)[C@H](CCC(N)=O)NC(=O)[C@H](CCCCNc1c(NCCCCCN(O)C(=O)CCC(=O)NCCCCCN(O)C(=O)CCC(=O)NCCCCCN(O)C(C)=O)c(=O)c1=O)NC(=O)[C@H](CCC(=O)O)NC(=O)[C@H](CC(C)C)NC(=O)[C@H](Cc1ccc(O)cc1)NC(=O)[C@H](CO)NC(=O)[C@H](CO)NC(=O)[C@@H](NC(=O)[C@H](CC(=O)O)NC(=O)[C@H](CO)NC(=O)[C@@H](NC(=O)[C@H](Cc1ccccc1)NC(=O)[C@@H](NC(=O)CNC(=O)[C@H](CCC(=O)O)NC(=O)[C@H](C)NC(=O)CCc1cnc[nH]1)[C@@H](C)O)[C@@H](C)O)C(C)C)C(=O)N[C@@H](C)C(=O)N[C@@H](Cc1c[nH]c2ccccc12)C(=O)N[C@@H](CC(C)C)C(=O)N[C@H](C(=O)N[C@@H](CCCCNc1c(NCCCCCN(O)C(=O)CCC(=O)NCCCCCN(O)C(=O)CCC(=O)NCCCCCN(O)C(C)=O)c(=O)c1=O)C(=O)NCC(=O)N[C@@H](CCCNC(=N)N)C(=O)N[C@@H](CCCCNC(=O)COCCOCCNC(=O)COCCOCCNC(=O)CC[C@H](NC(=O)CCCCCCCCCCCCCCCCC(=O)O)C(=O)O)C(=O)O)C(C)C	GLP1R (Homo sapiens, UniProt P43220)	agonist, CRE luciferase reporter	BHK cells	Zr-loaded DFO conjugate, added: 1% HSA	reference: parent peptide	fold potency loss	2.6
O=C1NC(=O)/C(=C/c2ccc(OCCNc3nc4c(cnn4C4CCCC4)c(=O)[nH]3)c(F)c2)S1	PDE4D (Homo sapiens, UniProt Q08499)				reference: PDE4D over PDE9	selectivity ratio	450 fold
O=C(CO)[C@@H](O[C@H]1O[C@H](CO)[C@@H](O)[C@H](O)[C@H]1O)[C@H](O)[C@H](O)CO	uncharacterized protein (Pelagibacter ubique, UniProt Q4FMK2)	differential scanning fluorimetry	Candidatus Pelagibacter ubique	concentration not given	higher = stronger binding	ΔTm	4.13 °C
